Experimental data gathered from unrelated publications.
Lines come from different studies, so protocols differ. Several values in a cell are separate wells, animals, samples, runs or records. Numbers after ± are the reported error.

The chains behind the UniProt entries cited, without tags or fusion partners. Residues count along the entry.
UniProt P10959, 19-549 limits assumed: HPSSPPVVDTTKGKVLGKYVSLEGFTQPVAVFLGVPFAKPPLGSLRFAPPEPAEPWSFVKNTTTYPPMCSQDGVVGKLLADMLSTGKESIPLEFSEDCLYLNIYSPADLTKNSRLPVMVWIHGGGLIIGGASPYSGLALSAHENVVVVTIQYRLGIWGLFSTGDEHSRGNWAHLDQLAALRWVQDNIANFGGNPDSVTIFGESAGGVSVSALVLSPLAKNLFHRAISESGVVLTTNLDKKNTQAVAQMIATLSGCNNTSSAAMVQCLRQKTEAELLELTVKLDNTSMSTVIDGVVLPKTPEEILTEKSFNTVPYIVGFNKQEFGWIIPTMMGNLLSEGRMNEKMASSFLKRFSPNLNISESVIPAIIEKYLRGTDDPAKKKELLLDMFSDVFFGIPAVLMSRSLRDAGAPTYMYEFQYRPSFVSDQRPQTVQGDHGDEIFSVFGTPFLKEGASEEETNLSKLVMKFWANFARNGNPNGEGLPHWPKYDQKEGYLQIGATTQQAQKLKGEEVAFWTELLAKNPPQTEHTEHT

O=C(NC1CCN(c2ncnc3[nH]cnc23)CC1)c1cccc(S(=O)(=O)Nc2ccc(Cl)cc2)c1
relative infection (SARS-CoV-2; Wuhan-Hu-1; 2.469 µM; baseline: untreated infected cells): 36.8%

CC(C)[C@H]1CC[C@@H](N2CCC3(CC2)C(=O)NCN3c2ccccc2)CC1
intrinsic activity (twitch contraction; mouse, mouse vas deferens; dose not given, unit not given; baseline: compound over N/OFQ Emax): > 1

COc1ccc(OCC2c3cc(OC(C)C)ccc3CCN2C(=O)c2cccc(Cl)c2)cc1 (racemic)
NMDA current (NMDA receptor; patch clamp; cultured hippocampal neurons; 10 µM, together with: 100 µM NMDA and 3 µM glycine; baseline: no compound): 200 ± 10%

CCOP(=O)(OCC)ON1C(=O)c2cccc3cccc(c23)C1=O
IC50 (Carboxylesterase 1C (Ces1c, Rattus norvegicus, UniProt P10959); enzyme activity, inhibitor; rat, postnatal day 12, rat serum; together with: p-nitrophenyl valerate): 1.1 nM

Cc1cc(C(=O)N[C@@H](Cc2cccc3ccccc23)C(=O)N[C@@H](CC(C)C)C(=O)N[C@H](C=O)C[C@@H]2CCCNC2=O)no1
EC90 (human rhinovirus 16; cytopathic effect, SRB; MRC-5; 3 days): 700 ± 200 nM

O=S(=O)(c1cccc(F)c1)N1CCCC2(C1)Nc1cccnc1N=C2NC1CCCC1 (stereo not drawn)
CC50 (HEK293; cell viability, CellTiter-Glo; 72 h): > 70000 nM

CC[C@H](C)[C@H](NC(=O)[C@H](C)NC(=O)[C@H](CCC(=O)O)NC(=O)[C@H](CCC(=O)O)NC(=O)[C@H](CC(C)C)NC(=O)[C@H](CCCCN)NC(=O)[C@H](CCCCN)NC(=O)[C@H](CCSC)NC(=O)[C@H](CCC(=O)O)NC(=O)[C@H](Cc1ccc(O)cc1)NC(=O)[C@H](CCC(=O)O)NC(=O)[C@H](CC(C)C)NC(=O)[C@H](CC(=O)O)NC(=O)[C@H](CC(C)C)NC(=O)[C@H](Cc1ccccc1)NC(=O)[C@@H](NC(=O)[C@@H](NC(=O)[C@H](CC(N)=O)NC(=O)[C@@H](NC(=O)[C@H](CCC(N)=O)NC(=O)[C@H](CC(=O)O)NC(=O)[C@H](CC(C)C)NC(=O)[C@@H](N)CO)[C@@H](C)CC)C(C)C)[C@@H](C)O)C(=O)N[C@@H](CCCCN)C(=O)N[C@@H](CCCCN)C(=O)N[C@@H](CC(C)C)C(=O)N[C@@H](CCC(=O)O)C(=O)N[C@@H](CCC(=O)O)C(=O)N[C@@H](C)C(=O)N[C@@H](Cc1ccc(O)cc1)C(=O)N[C@H](C(=O)N[C@@H](CC(=O)O)C(=O)N[C@@H](CC(C)C)C(=O)N[C@@H](CCCCN)C(=O)N[C@@H](CCC(=O)O)C(=O)N[C@@H](CC(C)C)C(=O)O)[C@@H](C)CC
IC50 (SARS-CoV-2 XBB.1.5 pseudovirus; pseudovirus infection, inhibitor, luciferase; Caco-2; 24 h): 1910 nM

Cc1ccc(S(=O)(=O)Nc2cccc(C(=O)NC3CCN(c4ncnc5[nH]cnc45)CC3)c2)cc1
inhibition (monkeypox virus E1/E12; 0.04883 µM): 24.2% and 15.2%

CC#Cc1ccc2c(=O)[nH]nc(Cc3ccc(F)c(C(=O)N4CCN(c5ccc(C#N)cn5)CC4)c3)c2c1
onset time (CT26; western blot, refers to: STAT1 protein; 300 nM): 16 h

Cc1ccccc1S(=O)(=O)Nc1cccc(C(=O)NC2CCN(c3ncnc4[nH]cnc34)CC2)c1
relative infection (SARS-CoV-2; Wuhan-Hu-1; 66.67 µM; baseline: untreated infected cells): 23.4%

O=C(Nc1cccc(Cl)c1)Nc1nonc1NC(=O)Nc1cccc(Cl)c1
luciferase signal (SARS-CoV-2 nsp5 C145A; reporter gene, cell-based secondary screen): 107 ± 3%

CC[C@H](C)[C@H](NC(=O)[C@H](C)NC(=O)[C@H](CCC(=O)O)NC(=O)[C@H](CCC(=O)O)NC(=O)[C@H](CC(C)C)NC(=O)[C@H](CCCCN)NC(=O)[C@H](CCCCN)NC(=O)[C@H](CCSC)NC(=O)[C@H](CCC(=O)O)NC(=O)[C@H](Cc1ccc(O)cc1)NC(=O)[C@H](CCC(=O)O)NC(=O)[C@H](CC(C)C)NC(=O)[C@H](CC(=O)O)NC(=O)[C@H](CC(C)C)NC(=O)[C@H](Cc1ccccc1)NC(=O)[C@@H](NC(=O)[C@@H](NC(=O)[C@H](CC(N)=O)NC(=O)[C@@H](NC(=O)[C@H](CCC(N)=O)NC(=O)[C@H](CC(=O)O)NC(=O)[C@H](CC(C)C)NC(=O)[C@@H](N)CO)[C@@H](C)CC)C(C)C)[C@@H](C)O)C(=O)N[C@@H](CCCCN)C(=O)N[C@@H](CCCCN)C(=O)N[C@@H](CC(C)C)C(=O)N[C@@H](CCC(=O)O)C(=O)N[C@@H](CCC(=O)O)C(=O)N[C@H](C(=O)N[C@@H](Cc1ccc(O)cc1)C(=O)N[C@H](C(=O)N[C@@H](CC(=O)O)C(=O)N[C@@H](CC(C)C)C(=O)N[C@@H](CCCCN)C(=O)N[C@@H](CCC(=O)O)C(=O)N[C@@H](CC(C)C)C(=O)O)[C@@H](C)CC)[C@@H](C)O
IC50 (SARS-CoV-2 Alpha pseudovirus; pseudovirus infection, inhibitor, luciferase; Caco-2; 24 h): 1210 nM

O=[N+]([O-])c1cc([As](O)O)ccc1O
IC50 (MCF-12A; cell viability; 72 h): 5600 nM

CC(=NNC(=S)N1CCC1)c1ccccn1
median survival time extension (mouse, BoNT/A1 intoxication; ip, 10 mg/kg, together with: botulinum neurotoxin A1): ~1.2 h

COc1ccc(S(=O)(=O)Nc2cccc(C(=O)NC3CCN(c4ncnc5[nH]cnc45)CC3)c2)cc1
relative infection (SARS-CoV-2; Wuhan-Hu-1; 22.22 µM; baseline: untreated infected cells): 32.4%

CC[C@H](C)[C@H](NC(=O)[C@H](C)NC(=O)[C@H](CCC(=O)O)NC(=O)[C@H](CCC(=O)O)NC(=O)[C@H](CC(C)C)NC(=O)[C@H](CCCCN)NC(=O)[C@H](CCCCN)NC(=O)[C@H](CCSC)NC(=O)[C@H](CCC(=O)O)NC(=O)[C@H](Cc1ccc(O)cc1)NC(=O)[C@H](CCC(=O)O)NC(=O)[C@H](CC(C)C)NC(=O)[C@H](CC(=O)O)NC(=O)[C@H](CC(C)C)NC(=O)[C@H](Cc1ccccc1)NC(=O)[C@@H](NC(=O)[C@@H](NC(=O)[C@H](CC(N)=O)NC(=O)[C@@H](NC(=O)[C@H](CCC(N)=O)NC(=O)[C@H](CC(=O)O)NC(=O)[C@H](CC(C)C)NC(=O)[C@@H](N)CO)[C@@H](C)CC)C(C)C)[C@@H](C)O)C(=O)N[C@@H](CCCCN)C(=O)N[C@@H](CCCCN)C(=O)N[C@@H](CC(C)C)C(=O)N[C@@H](CCC(=O)O)C(=O)N[C@@H](CCC(=O)O)C(=O)N[C@@H](CO)C(=O)N[C@@H](Cc1ccc(O)cc1)C(=O)N[C@H](C(=O)N[C@@H](CC(=O)O)C(=O)N[C@@H](CC(C)C)C(=O)N[C@@H](CCCCN)C(=O)N[C@@H](CCC(=O)O)C(=O)N[C@@H](CC(C)C)C(=O)O)[C@@H](C)CC
IC50 (SARS-CoV-2 Beta pseudovirus; pseudovirus infection, inhibitor, luciferase; Caco-2; 24 h): 1320 nM

O=C(NC1CCN(c2ncnc3[nH]cnc23)CC1)c1cccc(NS(=O)(=O)c2ccc([N+](=O)[O-])cc2)c1
relative infection (SARS-CoV-2; Wuhan-Hu-1; 200 µM; baseline: untreated infected cells): 7.62%

CC[C@H](C)[C@H](NC(=O)[C@H](C)NC(=O)[C@H](CCC(=O)O)NC(=O)[C@H](CCC(=O)O)NC(=O)[C@H](CC(C)C)NC(=O)[C@H](CCCCN)NC(=O)[C@H](CCCCN)NC(=O)[C@H](CCSC)NC(=O)[C@H](CCC(=O)O)NC(=O)[C@H](Cc1ccc(O)cc1)NC(=O)[C@H](CCC(=O)O)NC(=O)[C@H](CC(C)C)NC(=O)[C@H](CC(=O)O)NC(=O)[C@H](CC(C)C)NC(=O)[C@H](Cc1ccccc1)NC(=O)[C@H](Cc1ccccc1)NC(=O)[C@@H](NC(=O)[C@H](CC(N)=O)NC(=O)[C@@H](NC(=O)[C@H](CCC(N)=O)NC(=O)[C@H](CC(=O)O)NC(=O)[C@H](CC(C)C)NC(=O)[C@@H](N)CO)[C@@H](C)CC)C(C)C)C(=O)N[C@@H](CCCCN)C(=O)N[C@@H](CCCCN)C(=O)N[C@@H](CC(C)C)C(=O)N[C@@H](CCC(=O)O)C(=O)N[C@@H](CCC(=O)O)C(=O)N[C@@H](CO)C(=O)N[C@@H](Cc1ccc(O)cc1)C(=O)N[C@H](C(=O)N[C@@H](CC(=O)O)C(=O)N[C@@H](CC(C)C)C(=O)N[C@@H](CCCCN)C(=O)N[C@@H](CCC(=O)O)C(=O)N[C@@H](CC(C)C)C(=O)O)[C@@H](C)CC
IC50 (SARS-CoV-2 EG.5.1 pseudovirus; pseudovirus infection, inhibitor, luciferase; Caco-2; 24 h): 196 nM

For quick reference, copied from above:
CC[C@H](C)[C@H](NC(=O)[C@H](C)NC(=O)[C@H](CCC(=O)O)NC(=O)[C@H](CCC(=O)O)NC(=O)[C@H](CC(C)C)NC(=O)[C@H](CCCCN)NC(=O)[C@H](CCCCN)NC(=O)[C@H](CCSC)NC(=O)[C@H](CCC(=O)O)NC(=O)[C@H](Cc1ccc(O)cc1)NC(=O)[C@H](CCC(=O)O)NC(=O)[C@H](CC(C)C)NC(=O)[C@H](CC(=O)O)NC(=O)[C@H](CC(C)C)NC(=O)[C@H](Cc1ccccc1)NC(=O)[C@@H](NC(=O)[C@@H](NC(=O)[C@H](CC(N)=O)NC(=O)[C@@H](NC(=O)[C@H](CCC(N)=O)NC(=O)[C@H](CC(=O)O)NC(=O)[C@H](CC(C)C)NC(=O)[C@@H](N)CO)[C@@H](C)CC)C(C)C)[C@@H](C)O)C(=O)N[C@@H](CCCCN)C(=O)N[C@@H](CCCCN)C(=O)N[C@@H](CC(C)C)C(=O)N[C@@H](CCC(=O)O)C(=O)N[C@@H](CCC(=O)O)C(=O)N[C@@H](C)C(=O)N[C@@H](Cc1ccc(O)cc1)C(=O)N[C@H](C(=O)N[C@@H](CC(=O)O)C(=O)N[C@@H](CC(C)C)C(=O)N[C@@H](CCCCN)C(=O)N[C@@H](CCC(=O)O)C(=O)N[C@@H](CC(C)C)C(=O)O)[C@@H](C)CC
IC50 (SARS-CoV-2 XBB.1.5 pseudovirus; pseudovirus infection, inhibitor, luciferase; Caco-2; 24 h): 1910 nM

O=C(NC1CCN(c2ncnc3[nH]cnc23)CC1)c1cccc(NS(=O)(=O)c2ccc([N+](=O)[O-])cc2)c1
relative infection (SARS-CoV-2; Wuhan-Hu-1; 200 µM; baseline: untreated infected cells): 7.62%
